Assay results from different studies.
Each line is one published result; not all experiments were run side by side. Values joined by “and” are separate records of one study, mostly repeats; a detail may differ. Numbers after ± are the reported error.
OPRK1: Kappa-type opioid receptor (OPRK1, Homo sapiens, UniProt P41145)
aac: Aminoglycoside 2'-N-acetyltransferase (aac, Mycobacterium tuberculosis, UniProt P9WQG9)
icl: Isocitrate lyase (icl, Mycobacterium tuberculosis, UniProt P9WKK7)
uncharacterized protein: uncharacterized protein (Aptenodytes forsteri, UniProt A0A087QWN2)
Slc6a2: Transporter (Slc6a2, Rattus norvegicus, UniProt Q63380)

The inhibition of `CNC1(c2ccccc2Cl)CCCCC1=O` (racemic) is reported as 50% (OPRK1; radioligand binding, agonist, radioligand displacement; 30 µM).
For `CO[C@H]1C[C@@H]2CC[C@@H](C)[C@@](O)(O2)C(=O)C(=O)N2CCCC[C@H]2C(=O)O[C@H]([C@H](C)C[C@@H]2CC[C@@H](OC(=O)NCCOCCOCCOCCOCCOCCOCCOCCOCCC(=O)N3CCc4cc(Cn5nc(-c6ccc7oc(N)nc7c6)c6c(N)ncnc65)ccc4C3)[C@H](OC)C2)C[C@@H](O)[C@H](C)/C=C(\C)[C@@H](O)[C@@H](OC)C(=O)[C@H](C)C[C@H](C)/C=C/C=C/C=C/1C`, “fatigue TEAE incidence” read 58% (dose-escalation trial; patients with advanced solid tumours; intravenous, all doses weekly, any grade).
`Clc1cccc(COc2ccccc2CNCc2cccnc2)c1` — result for “highest concentration without inhibition”: over 200 µM (aac; neomycin acetylation, inhibitor; added: neomycin).
For `Cl.O=C(N[C@H]1CC[C@@]2(O)[C@H]3Cc4ccc(O)c5c4[C@@]2(CCN3CC2CC2)[C@H]1O5)c1ccc(C(F)F)s1`, the selectivity ratio was 9.8 (OPRK1; radioligand binding; CHO membranes; baseline: Ki µ over Ki κ).
With `COc1ccc(OCC(=O)c2c(O)cc(O)cc2O)cc1` the delta Tm was over 0.5 °C (icl; thermal shift, SYPRO Orange; 1 mM, pH 7.5, 1 mM MgCl2, protein 20 µM).
`C[C@]12CC[C@H](O)CC1=CC[C@@H]1[C@@H]2CC[C@]2(C)C(=O)CC[C@@H]12` gave a sulfonation rate of 88 nmol/min/mg and 62 nmol/min/mg and 70 nmol/min/mg and 78 nmol/min/mg and 83 nmol/min/mg (Sulfotransferase 2A1 (SULT2A1, Homo sapiens, UniProt Q06520); substrate, HPLC; 50 µM).
`CCCc1cc(C(=O)Cc2cc3ccccc3o2)c(O)cc1O` has a delta Tm of over 0.5 °C (icl; thermal shift, SYPRO Orange; 1 mM, pH 7.5, 1 mM MgCl2, protein 20 µM).
`Brc1ccc(COc2ccccc2CNCc2ccccc2)cc1` — result for “highest concentration without inhibition”: over 200 µM (aac; neomycin acetylation, inhibitor; added: neomycin).
`COc1ccsc1CNCC[C@@]1(c2ccccn2)CCOC2(CCCC2)C1` has a log(tau/KA) of 7.2 ± 0.08 (Mu-type opioid receptor (Oprm1, Mus musculus, UniProt P42866); GIRK current, perforated patch clamp; AtT20 cells; 80% receptor knockdown).
For `O=C(COc1ccc(Cl)cc1Cl)N/N=C/c1cc2c(s1)CCCC2`, the remaining activity was 50% (1-deoxy-D-xylulose-5-phosphate synthase (Mycobacterium tuberculosis, UniProt P9WNS3); inhibitor; concentration not given).
`Clc1cccc(COc2ccccc2CNCc2ccncc2)c1` — result for “highest concentration without inhibition”: over 200 µM (aac; neomycin acetylation, inhibitor; added: neomycin).
For `C[C@@H](O)[C@@H](CO)NC(=O)[C@@H](CCCNC(=N)N)NC(=O)[C@@H]1CCCN1C(=O)[C@@H]1CSSC[C@H](NC(=O)[C@H](Cc2ccccc2)NC(=O)CN2CCN(CC(=O)O)CCN(CC(=O)O)CCN(CC(=O)O)CC2)C(=O)N[C@@H](Cc2ccc(O)cc2)C(=O)N[C@@H](Cc2ccccc2)C(=O)N[C@@H](CCC(N)=O)C(=O)N[C@@H](CC(N)=O)C(=O)N1` [gallium-68 labelled], the tissue uptake was 0.27 %ID/g (healthy Wistar rat, bone; intravenous, 8 MBq, 60 min, individual animals).
For `COc1c(CCC[P+](c2ccccc2)(c2ccccc2)c2ccccc2)cc2c(c1OC)OCO2.[I-]`, the TGI was over -4 log M (HCT-116; SRB).
`CC[C@H](C)[C@H](NC(=O)[C@H](Cc1ccccc1)NC(=O)[C@H](CCC(=O)O)NC(=O)[C@H](CCCNC(=N)N)NC(=O)[C@H](C)NC(=O)[C@H](C)NC(=O)[C@H](CCC(N)=O)NC(=O)[C@H](CCC(=O)O)NC(=O)[C@H](CCC(=O)O)NC(=O)[C@H](CC(C)C)NC(=O)[C@H](Cc1ccc(O)cc1)NC(=O)[C@H](CO)NC(=O)[C@H](CO)NC(=O)[C@@H](NC(=O)[C@H](CC(=O)O)NC(=O)[C@H](CO)NC(=O)[C@@H](NC(=O)[C@H](Cc1ccccc1)NC(=O)[C@@H](NC(=O)CNC(=O)[C@H](CCC(=O)O)NC(=O)[C@H](C)NC(=O)CCc1c[nH]cn1)[C@@H](C)O)[C@@H](C)O)C(C)C)C(=O)N[C@@H](C)C(=O)N[C@@H](Cc1c[nH]c2ccccc12)C(=O)N[C@@H](CC(C)C)C(=O)N[C@H](C(=O)N[C@@H](CCCNC(=N)N)C(=O)NCC(=O)N[C@@H](CCCNC(=N)N)C(=O)N[C@@H](CCCCNC(=O)COCCOCCNC(=O)COCCOCCNC(=O)CC[C@H](NC(=O)CCCCCCCCCCCCCCCCC(=O)O)C(=O)O)C(=O)NCC(=O)NCC(=O)N[C@@H](CO)C(=O)N[C@@H](CCCCNc1c(NCCCCCN(O)C(=O)CCC(=O)NCCCCCN(O)C(=O)CCC(=O)NCCCCCN(O)C(C)=O)c(=O)c1=O)C(=O)O)C(C)C` [zirconium-89 labelled] has a tissue uptake of 0.05 %ID/g (gamma counting; rat, stomach-duodenum content; subcutaneous, 3 nmol/kg, 72 h).
The selectivity ratio of `Cl.O=C(N[C@H]1CC[C@@]2(O)[C@H]3Cc4ccc(O)c5c4[C@@]2(CCN3CC2CC2)[C@H]1O5)c1ccc(C(F)(F)F)s1` is reported as 5.26 (OPRK1; radioligand binding; CHO membranes; baseline: Ki µ over Ki κ).
`COc1cc(Nc2ncc(F)c(Nc3ccc4c(n3)NC(=O)C(C)(C)O4)n2)cc(OC)c1OC` has an IC50 of over 10 µM (Growth hormone secretagogue receptor type 1 (GHSR, Homo sapiens, UniProt Q92847)).
For `CC(=O)N[C@H]1C(O)O[C@H](CO)[C@@H](O)[C@@H]1O` (stereo partly shown), the Km was 19.2 ± 2.38 mM (lacto-N-biose phosphorylase; substrate).
The ΔG of `CCCCCCCC[C@H]1O[C@H]1C/C=C/C=C/[C@H](O)CC(=O)NC1=C[C@](C)(CC)OC1=O` is reported as -10 kcal/mol (Na(+)-translocating NADH-quinone reductase subunit B, whole Na+-NQR complex (nqrB, Vibrio cholerae serotype O1, UniProt Q9KPS2); isothermal titration calorimetry; 20 °C, 50 µM).
`C[C@]12CC[C@H]3[C@@H](CCC4=CC(=O)CC[C@@]43CO)[C@@H]1CCC2=O` gave a koff of 6.5 ± 2 s⁻¹ (uncharacterized protein; Aptenodytes forsteri).
`Nc1ccc([C@H](O)[C@@H](N)CO)cc1` has a delta Tm of over 0.5 °C (icl; thermal shift, SYPRO Orange; 1 mM, pH 7.5, 1 mM MgCl2, protein 20 µM).
Under luciferase activity, `COc1ccc2c(c1)[nH]c1c(C)nccc12` is recorded as “no effect” (luciferase; up to 20 µM).
For `C[C@]12CCC(=O)C=C1CC[C@@H]1[C@@H]2CC[C@]2(C)C(=O)CC[C@@H]12`, the koff was 5.2 ± 1.4 s⁻¹ (uncharacterized protein; Aptenodytes forsteri).
With `COc1ccc(N2C(=O)N(c3c(C)cccc3Cl)Cc3cnc(Nc4ccc(C5CCN(C)CC5)cc4OC)nc32)nc1` the inhibition was 7% (Testis-specific serine/threonine-protein kinase 3 (TSSK3, Homo sapiens, UniProt Q96PN8); kinase activity; 0.5 µM).
`c1ccc2cc([C@]34CNC[C@H]3C4)ccc2c1` has a dopamine uptake of 3.39% and 2.01% and 2.2% (Sodium-dependent dopamine transporter (SLC6A3, Homo sapiens, UniProt Q01959); inhibitor, [3H]dopamine uptake; 10 µM; baseline: no inhibitor).
The LC50 of `COc1cc(CCC[P+](c2ccccc2)(c2ccccc2)c2ccccc2)c(OC)c2c1OCO2.[I-]` is reported as over -4 log M (HOP-92; SRB).
Under “total nuclear transformations”, `CC(C)C[C@@H]1NC(=O)[C@H](CC(C)C)NC(=O)[C@H](Cc2c[nH]c3ccccc23)NC(=O)[C@H](CO)NC(=O)[C@H](Cc2c[nH]c3ccccc23)NC(=O)[C@@H]2CCCN2C(=O)[C@H](CC(C)C)NC(=O)[C@H](Cc2c[nH]cn2)NC(=O)[C@@H]2CCCN2C(=O)[C@H](CC(N)=O)NC(=O)[C@H](C)NC(=O)[C@H](Cc2ccc(O)cc2)NC(=O)[C@H](CS)NC(=O)[C@H](CCCCNC(=O)CN2CCN(CC(=O)O)CCN(CC(=O)O)CCN(CC(=O)O)CC2)NC1=O` [lutetium-177 labelled] is recorded as 9050 MBq-s (OLINDA dosimetry; BALB/c mice, liver; 37 MBq, 7 days).
`O=C(Cc1ccc2cccnc2c1)c1ccc(O)cc1O` has a delta Tm of over 0.5 °C (icl; thermal shift, SYPRO Orange; 1 mM, pH 7.5, 1 mM MgCl2, protein 20 µM).
`COc1cc2c(Oc3ccc4[nH]c(C)cc4c3F)ccnc2cc1OCC1(N)CC1`: “grade 3 Nausea” 0% (paediatric recurrent refractory sarcoma; 8 mg/kg).
`C=CCN1CC[C@]23c4c5ccc(O)c4O[C@H]2C(=O)CC[C@@]3(O)[C@H]1C5` has an inhibition of 100% (rat Opiate receptor; binding; 1 × 10 µM).
With `CC(=O)S(=O)(=O)c1ccc(C(=O)N[C@H]2CC[C@@]3(O)[C@H]4Cc5ccc(O)c6c5[C@@]3(CCN4CC3CC3)[C@H]2O6)s1.Cl` the selectivity ratio was 4.1 (OPRK1; radioligand binding; CHO membranes; baseline: Ki µ over Ki κ).
`NC(Cc1c[nH]c2ccccc12)C(=O)NCc1ccco1` (stereo not shown) has a delta Tm of over 0.5 °C (icl; thermal shift, SYPRO Orange; 1 mM, pH 7.5, 1 mM MgCl2, protein 20 µM).
`CCC(C(=O)c1ccc2c(c1)OCO2)N(C)C` (stereo not shown) — result for EC50: “inactive” (Slc6a2; substrate release, releaser; rat brain synaptosomes; added: [3H]MPP+ 9 nM).
`Oc1ccc2c3c1O[C@H]1[C@@H](O)CC[C@@]4(O)[C@@H](C2)N(CC2CCC2)CC[C@]314`: “log2 fold change” 0.489 (Probable G-protein coupled receptor 160 (GPR160, Homo sapiens, UniProt Q9UJ42); β-arrestin recruitment, TANGO luminescence, measured: GPR160; concentration not given; baseline: basal luminescence).
With `CNC(C)C(=O)c1ccc2c(c1)OCO2` (stereo not shown) the maximal release was 100% (Slc6a2; substrate release, releaser; rat brain synaptosomes).
With `COc1ccc(CC(=O)Nc2ccc(O)cc2C(=O)O)cc1` the delta Tm was over 0.5 °C (icl; thermal shift, SYPRO Orange; 1 mM, pH 7.5, 1 mM MgCl2, protein 20 µM).
`CC[C@H](C)[C@@H]1NC(=O)[C@@H]2CCCN2C(=O)[C@H](CC(C)C)NC(=O)[C@H](CC(C)C)NC(=O)CNC(=O)[C@@H](NC(=O)[C@@H](NC(=O)[C@H](CC(=O)O)NC(=O)CNC(=O)[C@@H](NC(=O)[C@H](C)NC(=O)CNC(=O)[C@H](CCCCN)NC(=O)[C@H](CC(C)C)NC(=O)[C@H](CC(C)C)NC(=O)[C@H](CCCCN)NC(=O)CNC(=O)[C@@H](NC(=O)[C@@H](N)CC(C)C)C(C)C)C(C)C)C(C)C)CSSC[C@@H](C(=O)O)NC1=O` — result for “log2 fold change”: -0.756 (RNA-seq, measured: Ccdc61; mouse, traumatic brain injury model, frontal cortex and hippocampus; dose not given; baseline: TBI alone).
With `Cl.N#Cc1ccc(C(=O)N[C@H]2CC[C@@]3(O)[C@H]4Cc5ccc(O)c6c5[C@@]3(CCN4CC3CC3)[C@H]2O6)s1` the selectivity ratio was 5.23 (OPRK1; radioligand binding; CHO membranes; baseline: Ki µ over Ki κ).
With `C[C@H]1CN(c2n[nH]c3nc(N[C@H]4CC[C@H](NS(=O)(=O)CCC(F)(F)F)CC4)ncc23)CCO1` the remaining binding was 1.17 (Large ribosomal subunit protein uL5 (Homo sapiens, UniProt P62913); Kinobeads competition, measured: RPL11; 20 µM, unit not given; baseline: vehicle).
For `COc1ccc(C(=O)N[C@H]2CC[C@@]3(O)[C@H]4Cc5ccc(O)c6c5[C@@]3(CCN4CC3CC3)[C@H]2O6)s1.Cl`, the selectivity ratio was 5.45 (OPRK1; radioligand binding; CHO membranes; baseline: Ki µ over Ki κ).
With `C[C@@H](O)[C@H](NC(=O)[C@@H]1CSSC[C@H](NC(=O)[C@@H](Cc2ccccc2)NC(=O)CN2CCN(CC(=O)[O-])CCN(CC(=O)[O-])CCN(CC(=O)[O-])CC2)C(=O)N[C@@H](Cc2ccc(O)cc2)C(=O)N[C@H](Cc2c[nH]c3ccccc23)C(=O)N[C@@H](CCCCN)C(=O)N[C@@H]([C@@H](C)O)C(=O)N1)C(=O)O.[177Lu+3]` the uptake was 0.713% (MEC1 treated with 200 µM zebularine; gamma counter; serum-free RPMI; 60 min, 37 °C).
